Experimental data from different studies.
± marks the error that the study gave.

SMILES	test	system	conditions	how to read	measurement	value
COc1cc(OC)cc(C2=C3C(C)=C(I)C(C)=[N+]3[B-](F)(F)n3c(/C=C/c4cccs4)c(I)c(C)c32)c1	–	DMSO	–	–	log molar absorptivity	4.61 M⁻¹ cm⁻¹
CCCCCCC(=O)C(=O)C(O)CO (stereo not shown)	–	–	concentration not given	relative to: isobutyl AI-2	log air-water partition coefficient change	0.63
COc1ccc(NC(=O)[C@H](CCCCN)NC(=O)c2cc(NC(=O)[C@H](CCCCN)NC(=O)c3cc(NC(=O)[C@H](CCCCN)NC(=O)c4cc(NC(=O)[C@@H](N)CCCCN)ccc4OC)ccc3OC)ccc2OC)cc1C(N)=O	UV-vis λmax shift	Tris 50 mM	pH 7.4, monomer-hexamer global fit, added: NaCl 0 M	–	log association constant	< 15
O=C1c2ccccc2NC(c2ccc(O)c(O)c2)N1/N=C/c1ccc(O)c(O)c1 (stereo not shown)	RP-HPLC	–	–	–	log k	-0.66
COc1cc2oc(-c3ccc(OC(F)(F)F)cc3)cc(=O)c2c(O)c1O	spectrophotometric titration	methanol/water 80/20 w/w	25.0 °C, ionic strength 0.1 M, 6-OH group	–	log protonation constant	9.47
O=C(O)CN(CCNC(=O)c1cccc(C(=O)NCCN(CC(=O)O)CC(=O)O)n1)CC(=O)O	potentiometric titration	water, 0.1 M KNO3	25.0 °C, species HL	–	log K (stepwise protonation)	10.3
COC(=O)c1ccccc1-c1c2ccc(=O)cc-2oc2cc(OCCCCC[P+](c3cc(C)cc(C)c3)(c3cc(C)cc(C)c3)c3cc(C)cc(C)c3)ccc12	shake-flask, HPLC	1-octanol/water	–	–	log P	2.37 ± 0.01
COc1cc(OC)cc(C2=C3C(C)=C(I)C(C)=[N+]3[B-](F)(F)n3c(/C=C/c4c[nH]c5ccc([N+](=O)[O-])cc45)c(I)c(C)c32)c1	–	dichloromethane	–	–	log molar absorptivity	4.41 M⁻¹ cm⁻¹
c1ccc(COc2cc3nc(c2)CNCCNCCNC3)cc1	pH-potentiometric titration	–	protonation constant, I 0.15 M NaCl, 298 K	–	log K1	10.5
COc1cc(OC)cc(C2=C3C(C)=C(I)C(C)=[N+]3[B-](F)(F)n3c(/C=C/c4c[nH]c5ccccc45)c(I)c(C)c32)c1	–	DMSO	–	–	log molar absorptivity	4.47 M⁻¹ cm⁻¹
CCNC(=O)C1OC(n2cnc3c(NC(CC)CC)nc(NCCNC(=O)Nc4ccncc4)nc32)C(O)C1O (stereo not shown)	IAM chromatography	–	pH 7.4	–	log kIAM	2.08
COc1cc(OC)cc(C2=C3C(C)=C(I)C(/C=C/c4cccs4)=[N+]3[B-](F)(F)n3c(/C=C/c4cccs4)c(I)c(C)c32)c1	–	THF	–	–	log molar absorptivity	4.6 M⁻¹ cm⁻¹
COc1cc2oc(-c3ccc(C(F)(F)F)cc3)cc(=O)c2c(O)c1O	spectrophotometric titration	methanol/water 80/20 w/w	25.0 °C, ionic strength 0.1 M, 6-OH group	–	log protonation constant	10.1
Oc1cc2nc(c1)CNCc1cc(O)cc(n1)CNC2	potentiometric titration	0.15 M NaCl	298 K, protonation constant	–	log K3	5.25
NCC(=O)N1CCC[C@H]1C(=O)N1C[C@H](O)C[C@H]1C(=O)O	potentiometric titration	–	37 °C, MAH-3 complex, added: Fe(III)	–	log beta	0.36
O=c1c(O)cccn1CCCN1CCN(CCCn2cccc(O)c2=O)CC1	spectrophotometric titration	–	25 °C, ligand protonation, ionic strength 0.10 M	–	log Ka1	-3.8 ± 0.1
NC(=O)CN1CCNC(=O)c2cccc(n2)C(=O)NCCN(CC(N)=O)CCN(CC(N)=O)CC1	potentiometric titration	water, 0.1 M KNO3	25.0 °C, complex species LPb(OH), added: Pb(NO3)2	–	log β (Pb2+ complex stability)	15.4
Cc1cccc(-c2cccc(C)n2)n1.Cc1cccc(-c2cccc(C)n2)n1.[Cl-].[Cl-].[Ru+2].c1ccc(-c2ccnc3c2ccc2c(-c4ccccc4)ccnc23)cc1	shake flask	n-octanol/water	dark	–	log P	-1.27 ± 0.03
[Cl][Pd-2]([Cl])([N+](=Cc1ccc[nH]1)Cc1ccco1)[N+](=Cc1ccc[nH]1)Cc1ccco1	shake-flask	n-octanol/water	–	–	log P	1.382 ± 0.0032
C[N+]1(C)CC[NH2+][Pt-2]1([OH])([Cl])([Cl])[O]C(=O)CCC(=O)O	RP-HPLC, C18 column	methanol/aqueous formic acid	25 °C, extrapolated to 100% water	–	log kw	0.46 ± 0.03
CCNC(=O)C1OC(n2cnc3c(NCC(c4ccccc4)c4ccccc4)nc(NCCNC(=O)Nc4cc[n+](C)cc4)nc32)C(O)C1O (stereo not shown)	IAM chromatography	–	pH 7.4	–	log kIAM	2.87
Br.Br.O=c1c(O)cccn1CCN1CCN(CCn2cccc(O)c2=O)CC1	spectrophotometric titration	–	25 °C, ligand protonation, ionic strength 0.10 M	–	log Ka1	-3.7 ± 0.1

SMILES	test	system	conditions	how to read	measurement	value
Oc1cccc(-c2cccc(O)n2)n1.[Cl-].[Cl-].[Ru+2].c1cnc2c(c1)ccc1cccnc12.c1cnc2c(c1)ccc1cccnc12	–	octanol/buffer	monoprotic acid form	–	log D	1.3
CCOC(=O)c1[nH]c(C)c(/C=C/c2c(I)c(C)c3n2[B-](F)(F)[N+]2=C(C)C(I)=C(C)C2=C3c2cc(OC)cc(OC)c2)c1C	–	DMSO	–	–	log molar absorptivity	4.82 M⁻¹ cm⁻¹
C[O][Pt-2]1([Cl])([Cl])([O]C(=O)CCC(=O)OCCOC(=O)CCC(=O)[O][Pt-2]2([Cl])([Cl])([O]C)[NH2+]CC[N+]2(C)C)[NH2+]CC[N+]1(C)C	RP-HPLC, C18 column	methanol/aqueous formic acid	25 °C, extrapolated to 100% water	–	log kw	2.95 ± 0.01
COc1cc(OC)cc(C2=C3C(C)=C(I)C(/C=C/c4c[nH]c5ccc([N+](=O)[O-])cc45)=[N+]3[B-](F)(F)n3c(/C=C/c4c[nH]c5ccc([N+](=O)[O-])cc45)c(I)c(C)c32)c1	–	THF	–	–	log molar absorptivity	4.79 M⁻¹ cm⁻¹
Oc1cccc(-c2cccc(O)n2)n1.[Cl-].[Cl-].[Ru+2].c1cnc2c(c1)c1c(c3cccnc32)OCCO1.c1cnc2c(c1)c1c(c3cccnc32)OCCO1	–	octanol/buffer	monoprotic acid form	–	log D	1.5
COc1cc(/C=N/N2C(=O)c3ccccc3NC2c2cc(OC)c(O)c([N+](=O)[O-])c2)cc([N+](=O)[O-])c1O (stereo not shown)	RP-HPLC	–	–	–	log k	0.447
C[O][Pt-2]1([Cl])([Cl])([O]C(=O)CCC(=O)OCCO)[NH2+]CC[N+]1(C)C	RP-HPLC, C18 column	methanol/aqueous formic acid	25 °C, extrapolated to 100% water	–	log kw	1.37 ± 0.06
CCNC(=O)C1OC(n2cnc3c(N)nc(NCCNC(=O)Nc4ccncc4)nc32)C(O)C1O (stereo not shown)	IAM chromatography	–	pH 7.4	–	log kIAM	0.51
Br.Br.Br.O=c1c(O)cccn1CCN1CCN(CCn2cccc(O)c2=O)CCN(CCn2cccc(O)c2=O)CC1	spectrophotometric titration	–	25 °C, ligand protonation, ionic strength 0.10 M	–	log Ka1	-3.79 ± 0.07
C[O][Pt-2]([NH3+])([NH3+])([Cl])([Cl])[O]C(=O)CCC(=O)OCCO	RP-HPLC, C18 column	methanol/aqueous formic acid	25 °C, extrapolated to 100% water	–	log kw	0.22 ± 0.01
COCCOCCOCCOc1ccc(/C=C/c2c(I)c(C)c3n2[B-](F)(F)[N+]2=C(C)C(I)=C(C)C2=C3c2cc(OC)cc(OC)c2)cc1	–	THF	–	–	log molar absorptivity	4.7 M⁻¹ cm⁻¹
COc1ccc(-c2cc(=O)c3c(OC)c(O)c(OC)cc3o2)cc1	spectrophotometric titration	methanol/water 80/20 w/w	25.0 °C, ionic strength 0.1 M, 6-OH group	–	log protonation constant	10.1
O=C(/C=C/c1ccc(O)c(O)c1)NCCCCCCCC[P+](c1ccccc1)(c1ccccc1)c1ccccc1	spectrophotometry	sodium deoxycholate micelles	37 °C	–	log Kd	1.79 ± 0.56
[CH3][Pd-2]([Cl])([N+](=Cc1ccc[nH]1)Cc1ccccc1)[N+](=Cc1ccc[nH]1)Cc1ccccc1	shake-flask	n-octanol/water	–	–	log P	1.395 ± 0.0065
Oc1ccc2nc1CNCCNCCNC2	pH-potentiometric titration	–	protonation constant, I 0.15 M NaCl, 298 K	–	log K2	9.46
COc1ccc(NC(=O)[C@H](CCCCN)NC(=O)c2cc(NC(=O)[C@H](CCCCN)NC(=O)c3cc(NC(=O)[C@H](CCCCN)NC(=O)c4cc(NC(C)=O)ccc4OC)ccc3OC)ccc2OC)cc1C(N)=O	UV-vis λmax shift	TBS	pH 7.4, monomer-hexamer, K in M^-5	–	log association constant	21.5
COCCOCCOCCOc1ccc(/C=C/C2=[N+]3C(=C(c4cc(OC)cc(OC)c4)c4c(C)c(I)c(/C=C/c5ccc(OCCOCCOCCOC)cc5)n4[B-]3(F)F)C(C)=C2I)cc1	–	DMSO	–	–	log molar absorptivity	4.79 M⁻¹ cm⁻¹
CCCCCCCC[P+](c1cc(C)cc(C)c1)(c1cc(C)cc(C)c1)c1cc(C)cc(C)c1	shake-flask, HPLC	1-octanol/water	–	–	log P	2.25 ± 0.05
FC(F)(F)c1ccnc(-c2cc(C(F)(F)F)ccn2)c1.FC(F)(F)c1ccnc(-c2cc(C(F)(F)F)ccn2)c1.[Cl-].[Cl-].[Ru+2].c1cnc2c(c1)c1nc[nH]c1c1cccnc12	shake-flask	1-octanol/phosphate buffer	pH 7.4, chloride salt	–	log D octanol/water	negative
CCNC(=O)C1OC(n2cnc3c(N)nc(NCCNC(=O)Nc4cc[n+](C)cc4)nc32)C(O)C1O (stereo not shown)	IAM chromatography	–	pH 7.4	–	log kIAM	0.66
COc1cc(-c2nc3ccccc3s2)cc(CN2CCN(CC(=O)OC(C)C)CCN(CC(=O)OC(C)C)CC2)c1O	–	octanol/water	64Cu complex	–	log D	0.91 ± 0.07

Excerpt of the above:
SMILES	test	system	conditions	how to read	measurement	value
COc1cc(-c2nc3ccccc3s2)cc(CN2CCN(CC(=O)OC(C)C)CCN(CC(=O)OC(C)C)CC2)c1O	–	octanol/water	64Cu complex	–	log D	0.91 ± 0.07
CCNC(=O)C1OC(n2cnc3c(NC(CC)CC)nc(NCCNC(=O)Nc4ccncc4)nc32)C(O)C1O (stereo not shown)	IAM chromatography	–	pH 7.4	–	log kIAM	2.08
CCCCCCC(=O)C(=O)C(O)CO (stereo not shown)	–	–	concentration not given	relative to: isobutyl AI-2	log air-water partition coefficient change	0.63
COc1cc(OC)cc(C2=C3C(C)=C(I)C(C)=[N+]3[B-](F)(F)n3c(/C=C/c4c[nH]c5ccc([N+](=O)[O-])cc45)c(I)c(C)c32)c1	–	dichloromethane	–	–	log molar absorptivity	4.41 M⁻¹ cm⁻¹
[Cl][Pd-2]([Cl])([N+](=Cc1ccc[nH]1)Cc1ccco1)[N+](=Cc1ccc[nH]1)Cc1ccco1	shake-flask	n-octanol/water	–	–	log P	1.382 ± 0.0032
C[O][Pt-2]([NH3+])([NH3+])([Cl])([Cl])[O]C(=O)CCC(=O)OCCO	RP-HPLC, C18 column	methanol/aqueous formic acid	25 °C, extrapolated to 100% water	–	log kw	0.22 ± 0.01
